Results of several laboratories.
Each line is one published result; not all experiments were run side by side. Several values in a cell are separate wells, animals, samples, runs or records. ± gives the spread as reported.

Structure (SMILES)	assay	test system	conditions	scale	measurement	result
COc1ccc(C(=O)CCc2cc(C(CCc3ccc(O)cc3OC)c3ccc(O)cc3)c(O)cc2OC)cc1 (racemic)	–	human blood	0.3 µM, together with: A23187	–	PGE2 level	35 ± 8 pg/mL
CN1CCC[C@]1(C)/C=C/S(=O)(=O)NC(=O)Nc1c2c(cc3c1CCC3)CCC2	–	human, whole blood ex vivo	12.5 mg twice daily, day 19, 108 h, multiple ascending dose, together with: LPS and ATP	–	IL-1β inhibition	-70.8%
COc1ccccc1-c1ccncc1C(=O)Nc1nnc(OCc2ccc(Cl)cc2)s1	–	Brca1 Δ11/Δ11 Polq-/- MEFs, Mus musculus	10 µM, average of runs	reference: 0 µM	colony survival	72.7%
Cc1ccc(N(O)/N=N/c2ccc(S(=O)(=O)Nc3nccs3)cc2)cc1	DPPH scavenging, absorbance	–	180 µg/mL	–	inhibition	30.8%
O=C(N[C@@H](Cc1ccc(OCCCCC2CCNCC2)cc1)C(=O)O)c1nc2ccccc2o1.O=C(O)C(F)(F)F	platelet aggregation, inhibitor, impedance aggregometry	human, whole blood, 1:1 saline	150 nM, 6 min, 37 °C, together with: ADP 20 µM	higher = more aggregation	aggregation impedance AUC	10.9 a.u. and 7.3 a.u.
COc1cc(O)ccc1CCC(c1ccc(O)cc1)c1cc2c(c(C)c1O)OC(c1ccc(O)cc1)CC2 (mixture of isomers)	–	human blood	3 µM, together with: A23187	–	5-HETE level	2520 ± 613 pg/mL
COC1OC(C)C(OS(=O)(=O)O)C(OC2OC(C)C(OS(=O)(=O)O)C(OC3OC(C)C(OS(=O)(=O)O)C(OC4OC(C)C(OS(=O)(=O)O)C(OS(=O)(=O)O)C4OS(=O)(=O)O)C3OS(=O)(=O)O)C2OS(=O)(=O)O)C1OS(=O)(=O)O (stereo not shown)	–	human plasma	128 µg/mL	–	thrombin time	9.2 s
CC(=O)[O-].O.O.O.O.[Mn+2].[O-]c1ccc(Br)cc1C=NCCN1CCOCC1	nitric oxide scavenging	–	160 µM	–	inhibition	29.4%
COC1OC(C)C(OC2OC(C)C(OS(=O)(=O)O)C(OC3OC(C)C(OC4OC(C)C(OS(=O)(=O)O)C(OC5OC(C)C(OC6OC(C)C(OS(=O)(=O)O)C(OC7OC(C)C(OC8OC(C)C(OS(=O)(=O)O)C(OC9OC(C)C(OC%10OC(C)C(OS(=O)(=O)O)C(OS(=O)(=O)O)C%10O)C(OS(=O)(=O)O)C9O)C8O)C(OS(=O)(=O)O)C7O)C6O)C(OS(=O)(=O)O)C5O)C4O)C(OS(=O)(=O)O)C3O)C2O)C(OS(=O)(=O)O)C1O (stereo not shown)	–	human plasma	128 µg/mL	–	thrombin time	10.1 ± 0.6 s
Cc1[nH]nc2c1N=C(c1ccccc1Cl)c1cnc(N3CCOCC3)cc1N2	–	mouse sample BA TNBC PDX	oral, 15 mg/kg, 120 h, 5 days per week	–	tumour growth inhibition	97%
COC1OC(C)C(OC2OC(C)C(OS(=O)(=O)O)C(OC3OC(C)C(OC4OC(C)C(OS(=O)(=O)O)C(OC5OC(C)C(OS(=O)(=O)O)C(OS(=O)(=O)O)C5O)C4O)C(OS(=O)(=O)O)C3O)C2O)C(OS(=O)(=O)O)C1O (stereo not shown)	–	human plasma	128 µg/mL	–	thrombin time	9.2 s
COC1CN([C@H]2CC[C@H]([C@@]3(C)Oc4c(Cl)cc(C(=O)NCc5c(SC)cc(C)[nH]c5=O)c(C)c4O3)CC2)C1	RNA-seq, item: TMCC2 mouse homolog	mouse, HT-1376 xenograft, whole blood	dose not given	reference: vehicle	log2 fold change	1.46
COC1OC(C)C(OC2OC(C)C(OS(=O)(=O)O)C(OC3OC(C)C(OC4OC(C)C(OS(=O)(=O)O)C(OC5OC(C)C(OS(=O)(=O)O)C(OS(=O)(=O)O)C5OS(=O)(=O)O)C4OS(=O)(=O)O)C(OS(=O)(=O)O)C3OS(=O)(=O)O)C2OS(=O)(=O)O)C(OS(=O)(=O)O)C1OS(=O)(=O)O (stereo not shown)	–	human plasma	128 µg/mL	reference: control	thrombin time prolongation	0.9 fold
NC[C@@H](C(=O)Nc1ccc(-c2cn[nH]c2)cc1)c1ccccc1	tonometry	NZW rabbit, magnetic bead-induced ocular hypertension	ocular, 0.1%, 0 h	–	IOP	36.4 mmHg
COC1OC(C)C(OS(=O)(=O)O)C(OC2OC(C)C(OS(=O)(=O)O)C(OC3OC(C)C(OS(=O)(=O)O)C(OC4OC(C)C(OS(=O)(=O)O)C(OC5OC(C)C(OS(=O)(=O)O)C(OC6OC(C)C(OS(=O)(=O)O)C(OC7OC(C)C(OS(=O)(=O)O)C(OC8OC(C)C(OS(=O)(=O)O)C(OC9OC(C)C(OS(=O)(=O)O)C(OC%10OC(C)C(OS(=O)(=O)O)C(OC%11OC(C)C(OS(=O)(=O)O)C(OC%12OC(C)C(OS(=O)(=O)O)C(OS(=O)(=O)O)C%12O)C%11O)C%10O)C9O)C8O)C7O)C6O)C5O)C4O)C3O)C2O)C1O (stereo not shown)	–	human plasma	128 µg/mL	–	thrombin time	9.7 ± 0.4 s
COc1cc2c(NC3CCN(C(C)C)CC3)cc(N3CCOCC3)nc2cc1OCCCN1CCCC1	TMT quantitative proteomics, item: MDH1 (cytoplasmic)	5xFAD mice, hippocampus	dose not given	–	normalised protein abundance	-0.0592 and -0.0385 and -0.0102 and -0.0704 and -0.0234 and -0.0479 and -0.0612 and -0.0418

A few entries again:
Structure (SMILES)	assay	test system	conditions	scale	measurement	result
O=C(N[C@@H](Cc1ccc(OCCCCC2CCNCC2)cc1)C(=O)O)c1nc2ccccc2o1.O=C(O)C(F)(F)F	platelet aggregation, inhibitor, impedance aggregometry	human, whole blood, 1:1 saline	150 nM, 6 min, 37 °C, together with: ADP 20 µM	higher = more aggregation	aggregation impedance AUC	10.9 a.u. and 7.3 a.u.
COc1cc(O)ccc1CCC(c1ccc(O)cc1)c1cc2c(c(C)c1O)OC(c1ccc(O)cc1)CC2 (mixture of isomers)	–	human blood	3 µM, together with: A23187	–	5-HETE level	2520 ± 613 pg/mL
